Published values collected from several papers.
Lines come from different studies, so protocols differ. “And” joins repeats or separate records; there may be more than shown. ± marks the error that the study gave.

Clc1ccc(C2(c3ccc(-c4cn[nH]c4)cc3)CCNCC2)cc1
relative cell number (SK-OV-3; ATP; 2D monolayer culture; 10 µM, 4 days; baseline: untreated): 4.3%

CSc1cc(Oc2ccnc3[nH]c(=O)cnc23)ccc1NC(=O)Nc1cc(C(C)(C)C)nn1-c1ccccc1
phosphorylated STAT5 level (patient-derived cell lines; reverse phase protein array; 1 µM, 4 h, mean of three patients, unit not given; baseline: DMSO): 0.61

O=C(O)c1ccc(-c2c[nH]c3ncc(-c4ccccc4)cc23)cc1C1CCCC1
relative cell number (SK-OV-3; ATP; 2D monolayer culture; 0.1 µM, 4 days; baseline: untreated): 109%

Cc1cc(Nc2ncc(Cl)c(Nc3ccccc3S(=O)(=O)C(C)C)n2)c(OC(C)C)cc1C1CCNCC1
log2 fold change (CLB-GE; phosphoproteomics LC-MS/MS, item: RLTPR phosphorylation; 200 nM, 60 min; baseline: untreated): -3.8

C=CC(=O)N1CCC[C@@H](c2ccc(C(N)=O)c3[nH]ccc23)C1
IC50 (TMD8 RAC2 knockout; calcium flux, FLIPR; 1 h preincubation): 0.068 µM

COc1ccc2c(N(C)c3ccc(/C(C)=N/OCCN)cc3)c3c(Cl)coc3nc2c1
viability reduction (LNCaP C-81; MTT; 1 µM, 72 h, steroid-reduced medium): ≥ 50%

CCn1cc(-c2cc(Cn3ccnc3)cc3c2CCN([C@H](c2cc(OC)ccn2)C2CC2)C3=O)c(C(F)(F)F)n1
EC50 (CFPAC-1; cell growth, inhibitor; 120 h): 14 µM

Cc1nc2c([nH]1)c(=O)n(C)c(=O)n2Cc1ccco1
imiquimod metabolism (HaCaT keratinocytes, benzo[a]pyrene-induced; LC-MS; 2 µM, 6 h, with: imiquimod 0.5 µM): no effect

COc1ccc(OC)c(-c2nc3ccc(-c4nc5ccc(N6CCN(C)CC6)cc5[nH]4)cc3[nH]2)c1
growth percent (NCI/ADR-RES; cell growth, NCI-60 SRB; 10 µM, 48 h): 104%

CS(=O)(=O)CCNCc1ccc(-c2ccc3ncnc(Nc4ccc(OCc5cccc(F)c5)c(Cl)c4)c3c2)o1
ATP level (iCell Cardiomyocytes (hiPSC-derived); CellTiter-Glo; concentration not given, 24 h; baseline: control): 102%

Cc1nc(N(Cc2ccccc2)c2ccc3c(c2)/C(=C/c2ccccc2)C(=O)N3Cc2ccccc2)c2ccccc2n1 (mixture of isomers)
migration inhibition (A549; Transwell; 1 µM, 24 h; baseline: untreated): 66.4%

O=C(/C=C/C=C/C=C/C1CCCCC1)NC1=C[C@@](O)(/C=C/C=C/C=C/C(=O)NC2=C(O)CCC2=O)[C@@H]2O[C@@H]2C1=O
GI50 (NCI-H2009; cell growth, CellTiter-Glo; 78 h): > 30 µM

CCCN1CCN(c2ccc3nc(-c4ccc5nc(-c6cc(OC)ccc6OC)[nH]c5c4)[nH]c3c2)CC1
growth percent (CAKI-1; SRB; 10 µM, 48 h): 106%

Oc1cccc(-c2nc(N3CCOCC3)c3oc4ncccc4c3n2)c1
beat amplitude (iCell Cardiomyocytes (hiPSC-derived); xCELLigence Cardio impedance; concentration not given, 2 h; baseline: control): 104%

O=C(O)CCCCCCCCCCC(=O)O
z-scored log2 fold change (binding, equilibrium dialysis LC-MS; 5 µM, thermostabilized A2AR-BRIL construct; baseline: no-protein control, direction not given): -0.341

CC(C)(C)c1cnc(CSc2cnc(NC(=O)C3CCN(C(=O)CCCCCCCN4Cc5cc6c(cc5C4)C(=O)N(C4CCC(=O)NC4=O)C6=O)CC3)s2)o1 (centres unmarked)
Rpb1 Ser2 CTD phosphorylation (TC-71; Western blot; low nanomolar): decreased

C[C@H]1[C@@H](O)O[C@@H]2O[C@@]3(C)CC[C@H]4[C@H](C)CC[C@@H]1[C@@]24OO3
late apoptotic cells (THP-1; annexin V/PI flow cytometry, item: annexin V+/PI+; 0.2 µM, 24 h): 1.1%

Nc1cccc2c1C(=O)N(C1CCC(=O)NC1=O)C2=O (centres unmarked)
surface marker level (RPMI-8226; flow cytometry, item: CD212; concentration not given; baseline: comparator compound alone): 333%

CC#CC(=O)N1CCC[C@H]1c1nc(-c2ccc(C(=O)Nc3ccccn3)cc2)c2c(N)nccn12
inhibition (TMD8 RAC2 knockout; calcium flux, FLIPR; concentration not given, 2 h preincubation): 98.4%

COC(=O)c1cc(C(C)=NNc2nc(-c3ccc4c(c3)OCCCO4)cs2)ccc1O
apoptotic cells (T47D; annexin V/PI flow cytometry; 20 µM, 72 h): 16.8 ± 1.63%

O=C(/C=C/c1cccc(S(=O)(=O)Nc2ccccc2)c1)NO
TNF-α mRNA level (differentiated THP-1; 25 µg/mL; baseline: untreated): decreased

Cn1c(Nc2nc3ccc(C(F)(F)F)cc3s2)nc2cc(C(=O)NCCOCCO)ccc21
fold change (SH-SY5Y; RNA-seq, item: ERRFI1 mRNA; 5 µM, 5 h; baseline: untreated cells): 1.66

C[C@H]1CN(C2COC2)CCN1c1ccc(Nc2cc(-c3ccnc(N4CCn5c(cc6c5CC(C)(C)C6)C4=O)c3CO)cn(C)c2=O)nc1
IC50 (TMD8 RAC2 knockout; calcium flux, FLIPR; 2 h preincubation): 0.0011 µM

C=CC(=O)N1C/C(=C\c2ccc([N+](=O)[O-])cc2)C(=O)/C(=C/c2ccc([N+](=O)[O-])cc2)C1
fibulin-3 level (ARPE-19 HiBiT fibulin-3; HiBiT luminescence; 1.66 µM): -38.4%

Nc1cccc2c1CN(C1CCC(=O)NC1=O)C2=O (centres unmarked)
viability (bone marrow CD138+ myeloma cells; XTT; 3 µM, phenol red-free RPMI): 5%

Cn1cc(-c2ccc(-c3cncc(Cl)c3N3CCC4(CCNC4=O)CC3)cc2)cn1
log2 fold change (COLO 205; gene expression, microarray, item: FCGRT mRNA; concentration not given, 6 h; baseline: untreated cells): 2.53

CN(C)C/C=C/C(=O)Nc1cc2c(Nc3ccc(F)c(Cl)c3)ncnc2cc1O[C@H]1CCOC1
ATP level (iCell Cardiomyocytes (hiPSC-derived); CellTiter-Glo; concentration not given, 24 h; baseline: control): 89.5%

COc1ccc(Cc2ncnc3cc(OC)c(OC)cc23)cc1
inhibition (A549; mitochondrial oxygen consumption, Seahorse XF96; 10 µM): 23%

Cn1c(Nc2ccc(C(F)(F)F)cc2)nc2cc(Oc3ccnc(-c4ncc(C(F)(F)F)[nH]4)c3)ccc21
beat amplitude (iCell Cardiomyocytes (hiPSC-derived); xCELLigence Cardio impedance; concentration not given, 2 h; baseline: control): 96.6%

CCCCc1nc(Cl)c(CO)n1Cc1ccc(-c2ccccc2-c2nn[nH]n2)cc1
log2 fold change (human PBMC; RNA-seq, item: C1QTNF1 mRNA; 10 µg/mL, 24 h; baseline: untreated control): 2.93

CCCCN1C[C@H](O)[C@@H](O)[C@@H](O)[C@H]1CO
IC50 (sample J patient fibroblasts; GlcCer level lowering, LC-MS/MS, item: GlcCer d18:1/24:1; 216 h): 70.1 µM

Cn1cc(Nc2nccc(-c3ccc4c(c3)CN(C3COC3)CC[C@H]4NC(=O)c3cn(C(C)(C)C)nn3)n2)cn1
pathway activation z-score (mouse splenic B cells; item: p70S6K signalling; 30 mg/kg, IgD-activated in vivo; baseline: vehicle, direction not given): 3.15

CCN1CCN(Cc2ccc(NC(=O)Nc3ccc(Oc4cc(NC)ncn4)cc3)cc2C(F)(F)F)CC1
ATP level (iCell Cardiomyocytes (hiPSC-derived); CellTiter-Glo; concentration not given, 24 h; baseline: control): 102%

CC(C)C(=O)C(=O)O
z-scored log2 fold change (binding, equilibrium dialysis LC-MS; 5 µM, thermostabilized A2AR-BRIL construct; baseline: no-protein control, direction not given): -1.73

O=c1[nH]nc(OCCCc2ccc(Cl)cc2)c(NCc2cccnc2)c1Br
normalized enrichment score (HEK-293T; RNA-seq GSEA, item: HALLMARK_P53_PATHWAY; concentration not given; direction not given): 1.49

COc1ccc(C[C@@H]2c3cc(Oc4cc(C[C@@H]5c6cc(OC)c(OC)cc6CCN5C)ccc4O)c(OC)cc3CCN2C)cc1
inhibition (3T3-L1; adipocyte lipid accumulation, Nile Red staining; 10 µM): 42.2 ± 1%

Cc1c(C)c2c(c(C)c1O)CCC(C)(COc1ccc(CC3SC(=O)NC3=O)cc1)O2 (centres unmarked)
caspase-3/7 activity (THLE-2; 40 µM, 96 h, 2D culture): ~50%

C=CC(=O)N1CCC([C@@H]2CCNc3c(C(N)=O)c(-c4ccc(Oc5ccccc5)cc4)nn32)CC1
inhibition (TMD8 RAC2 knockout; calcium flux, FLIPR; concentration not given, 1 h preincubation): 101%

Cc1[nH]c(/C=C2\C(=O)Nc3ccc(S(=O)(=O)Cc4c(Cl)cccc4Cl)cc32)c(C)c1C(=O)N1CCC[C@@H]1CN1CCCC1
cell index (iCell Cardiomyocytes (hiPSC-derived); cellular impedance; concentration not given, 24 h; baseline: control): 99.5%

COc1cc2ncnc(Cc3cccc(-c4ccccc4OC)c3)c2cc1OC
inhibition (A549; mitochondrial oxygen consumption, Seahorse XF96; 10 µM): 48%

CC(C)NCC(O)c1ccc(O)c(O)c1 (centres unmarked)
sarcomere length (mouse ventricular cardiomyocytes; dose not given, 0.195 s): 1.71 µm

C[C@@H]1CN(C(=O)c2ccc(NC(=O)c3cc(O[C@H](C)c4c(Cl)ccc(F)c4Cl)c(N)nn3)cc2)C[C@H](C)N1
IC50 (Ba/F3 EML4-ALK variant 1 S1206F; cell viability): 0.0222 µM

CCn1c(-c2nonc2N)nc2cncc(CNC3CCNCC3)c21
relative cell number (SK-OV-3; ATP; 0.1 µM, 4 days, 3D gellan gum culture; baseline: untreated): 88.4%

COc1cnc2cccc(N3CCc4c(cc(Cn5ccnc5C)cc4-c4cn(C)nc4C(F)(F)F)C3=O)c2c1
EC50 (SKMEL31; cell growth; 120 h): > 30 µM

COc1cc(Nc2c(C#N)cnc3cc(OCCCN4CCN(C)CC4)c(OC)cc23)c(Cl)cc1Cl
beat amplitude (iCell Cardiomyocytes (hiPSC-derived); xCELLigence Cardio impedance; concentration not given, 2 h; baseline: control): 98.4%

Cc1cc(Nc2ncc(Cl)c(Nc3ccccc3S(=O)(=O)C(C)C)n2)c(OC(C)C)cc1C1CCNCC1
Emax (Ba/F3 EML4-ALK variant 1 S1206F; cell viability): 100%

Cc1nc(NC(=O)N2CCC[C@H]2C(N)=O)sc1-c1ccnc(C(C)(C)C(F)(F)F)c1
GR50 (T47D; cell growth; 72 h): 67.2 nM

Cc1nn(-c2nc3c(F)cc(F)cc3s2)c(O)c1C(c1ccc(C(F)(F)F)cc1)c1c(C)nn(-c2nc3c(F)cc(F)cc3s2)c1O
IFNB1 mRNA level (RAW-ISG; RT-qPCR; 10 µM, unit not given, with: poly(I:C); baseline: DMSO): 0.878 and 1.17 and 0.977

CC/C(=N\NC(=O)NCc1cccc(O)c1)c1ccc(O)c(C)c1O
protein level (SK-OV-3; Western blot, item: YAP; 1 µM, 1 h, 3D culture, gellan gum, unit not given; baseline: β-actin): 1.09 ± 0.24

CC(C)Nc1ccnc(Nc2ccccc2-c2ccccc2)n1
EC50 (MOLM-13 (FLT3-ITD/D835Y); cell viability, MTT; 72 h): 4.26 µM

CCCCCCNC(=O)n1cc(F)c(=O)[nH]c1=O
ceramide level (SW-403; LC-MS, item: Cer(d18:1/14:0); 0.1 µM): 3.59 ± 0.54 pmol/mg protein

Cn1cc(-c2ccc(F)c(C(F)(F)F)c2)nc1C1CCN(c2ncnc3[nH]ncc23)CC1
relative cell number (SK-OV-3; ATP; 1 µM, 4 days, 3D U-bottom low-attachment; baseline: untreated): 118%

C#Cc1cccc(Nc2ncnc3cc(OCCOC)c(OCCOC)cc23)c1
beat amplitude (iCell Cardiomyocytes (hiPSC-derived); xCELLigence Cardio impedance; concentration not given, 2 h; baseline: control): 96.8%

CNC(=O)c1cc(Oc2ccc(NC(=O)Nc3ccc(Cl)c(C(F)(F)F)c3)cc2)ccn1
selectivity ratio (BEAS-2B and A549; MTT; baseline: IC50 BEAS-2B over IC50 A549): 5.4

CCn1cc(-c2cc(Cn3ccoc3=N)cc3c2CCN([C@@H](C)c2cc(OC)ccn2)C3=O)c(C(F)(F)F)n1
EC50 (MCAS; cell growth; 120 h): 10.5 µM

Clc1nc(NCc2ccco2)c2[nH]cnc2n1
ΔPSI (FD iPSC-derived cardiomyocytes; alternative splicing, RNA-seq, item: CYB561D2 exon chr3(+):50352008-50352046; unit not given; baseline: DMSO minus compound): -0.319

A few entries again:
C=CC(=O)N1CCC([C@@H]2CCNc3c(C(N)=O)c(-c4ccc(Oc5ccccc5)cc4)nn32)CC1
inhibition (TMD8 RAC2 knockout; calcium flux, FLIPR; concentration not given, 1 h preincubation): 101%

Cc1[nH]c(/C=C2\C(=O)Nc3ccc(S(=O)(=O)Cc4c(Cl)cccc4Cl)cc32)c(C)c1C(=O)N1CCC[C@@H]1CN1CCCC1
cell index (iCell Cardiomyocytes (hiPSC-derived); cellular impedance; concentration not given, 24 h; baseline: control): 99.5%

COc1cc2ncnc(Cc3cccc(-c4ccccc4OC)c3)c2cc1OC
inhibition (A549; mitochondrial oxygen consumption, Seahorse XF96; 10 µM): 48%

CC(C)NCC(O)c1ccc(O)c(O)c1 (centres unmarked)
sarcomere length (mouse ventricular cardiomyocytes; dose not given, 0.195 s): 1.71 µm

C[C@@H]1CN(C(=O)c2ccc(NC(=O)c3cc(O[C@H](C)c4c(Cl)ccc(F)c4Cl)c(N)nn3)cc2)C[C@H](C)N1
IC50 (Ba/F3 EML4-ALK variant 1 S1206F; cell viability): 0.0222 µM

CCn1c(-c2nonc2N)nc2cncc(CNC3CCNCC3)c21
relative cell number (SK-OV-3; ATP; 0.1 µM, 4 days, 3D gellan gum culture; baseline: untreated): 88.4%

COc1cnc2cccc(N3CCc4c(cc(Cn5ccnc5C)cc4-c4cn(C)nc4C(F)(F)F)C3=O)c2c1
EC50 (SKMEL31; cell growth; 120 h): > 30 µM

COc1cc(Nc2c(C#N)cnc3cc(OCCCN4CCN(C)CC4)c(OC)cc23)c(Cl)cc1Cl
beat amplitude (iCell Cardiomyocytes (hiPSC-derived); xCELLigence Cardio impedance; concentration not given, 2 h; baseline: control): 98.4%
